Published values from different studies.
A part holds a random share of what one study measured.

Sample 1
Target: Sal-like protein 4, full length isoform B (SALL4, Homo sapiens, UniProt Q9UJQ4-2, residues 1-616)
Technique: universal PBM
Molecule type: double-stranded DNA, one strand shown
Matrix: in vitro
Concentration: not given
Notes: 8-mer, flanks averaged, mean of replicates
Direction: higher = stronger binding
| Strand | E-score |
| --- | --- |
| GATTGCGC | 0.00989 |
| ATCTTTGG | 0.0314 |
| CGGTGGAA | -0.245 |
| AACCTGAC | -0.0633 |
| ATGACGGG | -0.0968 |
| GGGGCATA | 0.0703 |

Sample 2
Target: Interferon regulatory factor 3, full length, phosphomimetic (IRF3, Homo sapiens, UniProt Q14653, residues 1-427, S386D/S396D/S398D/S402D/T404D/S405D)
Technique: protein-binding microarray
Molecule type: double-stranded DNA, one strand shown
Matrix: in vitro
Concentration: 2540 nM top
Notes: 60-bp whole probe
Added: salmon DNA 0.4 mg/ml
Relative to: random background probes
Direction: higher = stronger binding
Shared flanks, not repeated: GCCTAGCAC … GTGCTAGGTCTTGATTCGCTTGACGCTGCTG
Construct (chain): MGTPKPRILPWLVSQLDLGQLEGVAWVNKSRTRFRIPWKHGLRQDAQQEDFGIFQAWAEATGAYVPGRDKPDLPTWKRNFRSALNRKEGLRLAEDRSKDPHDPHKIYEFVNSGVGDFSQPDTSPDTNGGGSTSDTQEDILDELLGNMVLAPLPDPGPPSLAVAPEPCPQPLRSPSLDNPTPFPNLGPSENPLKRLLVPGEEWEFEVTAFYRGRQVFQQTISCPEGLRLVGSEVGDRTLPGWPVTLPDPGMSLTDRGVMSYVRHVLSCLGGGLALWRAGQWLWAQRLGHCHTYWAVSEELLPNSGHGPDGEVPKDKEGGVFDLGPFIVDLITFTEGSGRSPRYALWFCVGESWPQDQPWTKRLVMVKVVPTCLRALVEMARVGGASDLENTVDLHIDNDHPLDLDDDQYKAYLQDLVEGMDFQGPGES
| Strand | fitted relative affinity |
| --- | --- |
| GCCGATATCAGACTGGAGAC | 0.791 z-score |
| TTAGAACTGAGACCGGATTA | -0.073 z-score |
| GACGAACTTAGACTGGAGAC | -0.16 z-score |
| TTAGATTTCTGACTGGATTA | 0.372 z-score |
| TTAGGACTGGGACTGGGGTA | -1 z-score |
| CTAGGTATCCTACTGCTTTA | 2.43 z-score |

Sample 3
Target: Histone acetyltransferase KAT6A, winged helix 1, GST fusion (KAT6A, Homo sapiens, UniProt Q92794, residues 1-85)
Technique: protein binding microarray
Molecule type: double-stranded DNA, one strand shown
Matrix: in vitro
Concentration: not given
Notes: 8-mer, flanks averaged, mean of 2 arrays, mostly near background
Relative to: not given
Direction: higher = stronger binding
Construct (chain): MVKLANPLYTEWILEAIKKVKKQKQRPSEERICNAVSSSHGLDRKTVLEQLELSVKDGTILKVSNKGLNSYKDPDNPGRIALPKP
| Strand | E-score |
| --- | --- |
| TCAAGTCA | -0.181 |
| AGCCTTCA | -0.152 |
| AACAGTGC | 0.00414 |
| ACAGTACG | 0.0377 |
| AGCCTCTA | -0.146 |
| CTTCTGAC | -0.0888 |
| GAAGCCTA | 0.0423 |

Further values, each from its own experiment
| Substance | target | test | system | setting | scale | quantity | result |
| --- | --- | --- | --- | --- | --- | --- | --- |
| PhoQ, residues 284 288 289 292 302 303 ALASRC | PhoP, residues 12 14 15 18 19 GQALL (Escherichia coli, UniProt P23836) | Sort-seq, item: YFP reporter | E. coli | PhoQ-PhoP variant library, added: 10 µM Mg2+ | relative to: high Mg2+ state, higher = stronger signaling | fold induction | 12.7 |

Some of these lines once more (sample 2):
| Strand | fitted relative affinity |
| --- | --- |
| TTAGATTTCTGACTGGATTA | 0.372 z-score |
